Published values of several laboratories.
Numbered parts are unrelated; each lists some results of a single study.

Study 1
Target: UBE2O UBC core domain (UniProt Q9C0C9)
Method: yeast two-hybrid
Matrix: yeast
Setting: mostly zero background
Reference: not given
Direction: higher = stronger interaction
B1: MKRN3 RING domain (UniProt Q13064); chain FAVQRGMDKVCGICMEVVYEKANPNDRRFGILSNCNHSFCIRCIRRWRSARQFENRIVKSCPQCRVTSELVIPSE
B2: TRIM11 RING domain (UniProt Q96F44); chain LSTNLQEEATCAICLDYFTDPVMTDCGHNFCRECIRRCWGQPEGPYACPECRELSPQRNLRP
B3: VPS8 RING domain (UniProt Q8N3P4); chain TRGLNPKQDYCSICLQQYKRRQEMADEIIVFSCGHLYHSFCLQNKECTVEFEGQTRWTCYKCSSSNKVGKLSE
B4: HLTF RING domain (UniProt Q14527); chain LILSSGSDEECAICLDSLTVPVITHCAHVFCKPCICQVIQNEQPHAKCPLCRNDIHEDNLLE
B5: RNF6 RING domain (UniProt Q9Y252); chain NSIDSELGKICSVCISDYVTGNKLRQLPCMHEFHIHCIDRWLSENCTCPICRQPVLGSNIAN
B6: CNOT4 RING domain (UniProt O95628); chain MSRSPDAKEDPVECPLCMEPLEIDDINFFPCTCGYQICRFCWHRIRTDENGLCPACRKPYPED
B7: RNF103 RING domain (UniProt O00237); chain WPADMLHCTECVVCLENFENGCLLMGLPCGHVFHQNCIVMWLAGGRHCCPVCRWPSYKKKQPY
B8: ZMYND11 RING domain (UniProt Q15326); chain DEIDWETENHDWYCFECHLPGEVLICDLCFRVYHSKCLSDEFRLRDSSSPWQCPVCRSIKKKNTNKQEM
B9: RNF182 RING domain (UniProt Q8N6D2); chain AESQASDELECKICYNRYNLKQRKPKVLECCHRVCAKCLYKIIDFGDSPQGVIVCPFCRFETCLPDDEV
Residues (chain): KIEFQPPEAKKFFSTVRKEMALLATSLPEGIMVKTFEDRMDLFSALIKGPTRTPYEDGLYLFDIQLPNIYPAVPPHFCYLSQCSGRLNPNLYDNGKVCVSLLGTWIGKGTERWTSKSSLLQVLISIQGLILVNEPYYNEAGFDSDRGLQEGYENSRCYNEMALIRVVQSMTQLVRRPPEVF
Molecule | lacZ reporter activity
B1 (MKRN3 RING domain) | 0
LEALSSDFLACKICLEQLRAPKTLPCLHTYCQDCLAQLADGGRVRCPECRETVPVPPEGV (TRIM56 RING domain (UniProt Q9BRZ2)) | 0
B2 (TRIM11 RING domain) | 0
B3 (VPS8 RING domain) | 0
EIKEYKARLTCPCCNTRKKDAVLTKCFHVFCFECVRGRYEARQRKCPKCNAAFGAHDFHR (RNF40 RING domain (UniProt O75150)) | 0
ASPKIFQKTKCSICNSALELPSVHFLCGHSFHQHCFESYSESDADCPTCLPENRKVMDMI (VPS11 RING domain (UniProt Q9H270)) | 0
B4 (HLTF RING domain) | 0
B5 (RNF6 RING domain) | 0
B6 (CNOT4 RING domain) | 0
B7 (RNF103 RING domain) | 0
B8 (ZMYND11 RING domain) | 0
B9 (RNF182 RING domain) | 0

Study 2
Target: Sal-like protein 4, full length isoform A (SALL4, Homo sapiens, UniProt Q9UJQ4, residues 1-1053)
UniProt Q9UJQ4, sequence (whole entry, looked up): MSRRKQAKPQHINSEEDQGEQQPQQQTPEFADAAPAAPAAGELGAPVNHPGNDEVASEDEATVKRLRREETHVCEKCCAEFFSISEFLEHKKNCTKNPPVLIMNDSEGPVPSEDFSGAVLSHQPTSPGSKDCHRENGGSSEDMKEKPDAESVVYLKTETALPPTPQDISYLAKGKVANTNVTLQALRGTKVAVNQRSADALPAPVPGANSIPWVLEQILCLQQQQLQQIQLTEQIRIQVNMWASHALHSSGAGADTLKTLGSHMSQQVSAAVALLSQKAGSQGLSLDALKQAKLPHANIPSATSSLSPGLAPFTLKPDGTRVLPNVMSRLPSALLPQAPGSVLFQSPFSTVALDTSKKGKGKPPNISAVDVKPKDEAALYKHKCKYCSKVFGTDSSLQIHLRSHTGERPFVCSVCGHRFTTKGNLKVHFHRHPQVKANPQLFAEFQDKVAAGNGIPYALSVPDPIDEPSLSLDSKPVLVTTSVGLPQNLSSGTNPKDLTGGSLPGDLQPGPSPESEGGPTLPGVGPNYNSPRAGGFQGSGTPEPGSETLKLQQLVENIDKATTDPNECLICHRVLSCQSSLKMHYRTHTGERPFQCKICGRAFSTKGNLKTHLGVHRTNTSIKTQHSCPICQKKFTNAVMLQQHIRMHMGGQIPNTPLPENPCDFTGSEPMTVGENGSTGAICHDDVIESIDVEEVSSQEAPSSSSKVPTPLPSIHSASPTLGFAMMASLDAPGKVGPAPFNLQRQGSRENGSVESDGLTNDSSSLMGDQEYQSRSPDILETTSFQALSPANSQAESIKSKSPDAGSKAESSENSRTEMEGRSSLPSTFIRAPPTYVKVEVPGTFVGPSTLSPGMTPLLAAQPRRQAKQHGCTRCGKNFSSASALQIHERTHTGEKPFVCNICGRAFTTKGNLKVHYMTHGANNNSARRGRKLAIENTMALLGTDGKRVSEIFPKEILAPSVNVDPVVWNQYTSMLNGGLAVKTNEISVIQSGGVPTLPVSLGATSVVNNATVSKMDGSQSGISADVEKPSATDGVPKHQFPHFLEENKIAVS
Method: universal PBM
Form: double-stranded DNA, one strand shown
Matrix: in vitro
Concentration: 600 nM
Setting: 8-mer, flanks averaged, mean of replicates
Direction: higher = stronger binding
Oligonucleotide | E-score
ATCATGCC | 0.0926
GACGCCGC | -0.412
AAGTGTCC | -0.131
CCAAACAG | -0.0278
ATCGGAAT | 0.156
GCCAAACA | -0.103
GCTGATTA | 0.0907
CAGTATAG | 0.187
ACACTAAG | 0.0351
GACACAGC | -0.152
AACTCCTC | 0.0379
GATGTGAC | 0.0133
ATCGACCC | -0.0896
GTGAGCAC | -0.176
CGGTCTCC | -0.363
CATTAGGG | 0.0246
AGAGTGTA | 0.0153
GTCACTCA | -0.0898
ACAGAACT | 0.17
ATCCGTGG | -0.208
CCAATTCG | -0.0128
GTATAAAC | 0.203
CCATTGGG | -0.176
CTAGACTA | 0.0677
GCGTCTGA | -0.202

Study 3
Target: Ras GTPase-activating protein-binding protein 1, full length (G3BP1, Homo sapiens, UniProt Q13283)
UniProt Q13283, sequence (whole entry, looked up): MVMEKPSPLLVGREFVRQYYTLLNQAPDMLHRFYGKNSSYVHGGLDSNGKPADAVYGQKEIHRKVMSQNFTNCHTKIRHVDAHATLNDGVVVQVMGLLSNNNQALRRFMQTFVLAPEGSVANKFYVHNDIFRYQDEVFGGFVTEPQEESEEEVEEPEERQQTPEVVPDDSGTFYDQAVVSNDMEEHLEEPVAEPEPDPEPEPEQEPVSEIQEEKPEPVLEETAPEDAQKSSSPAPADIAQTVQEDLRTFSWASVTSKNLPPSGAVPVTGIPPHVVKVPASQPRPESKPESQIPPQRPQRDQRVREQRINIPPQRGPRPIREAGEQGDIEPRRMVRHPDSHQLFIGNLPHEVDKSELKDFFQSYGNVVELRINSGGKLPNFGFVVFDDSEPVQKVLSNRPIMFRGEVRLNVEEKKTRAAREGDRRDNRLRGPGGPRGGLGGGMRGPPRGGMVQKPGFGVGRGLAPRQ
Method: RNA Bind-n-Seq
Form: RNA
Matrix: in vitro
Concentration: 200 nM
Setting: whole 134-nt RNA, ends assumed
With: 150 mM LiCl
Reference: input library
Direction: higher = stronger binding
Each molecule: 7-deaza-guanosine replaces G
Oligonucleotide | log2 enrichment
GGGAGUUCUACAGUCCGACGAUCGUCCUGUGCUACACAUCGUAUGUACCGAAUCGGUUUUUGGUUUUUUUGGUUUUUUUGGAAAGUAUUAUGUUACGCCGUUCGGAUCUGCACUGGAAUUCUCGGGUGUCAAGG | -1.16
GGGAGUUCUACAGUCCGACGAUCCCUCAAGUCCUGUGCUACACAUCGUAUGUACCGAAUCGGAGGUUUUUGGUGGAAAGUAUUAUGUUACGCCGUUCGGAUCUGCACUUCCAGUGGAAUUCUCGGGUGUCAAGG | -0.318
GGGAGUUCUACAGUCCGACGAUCAGUCCUGUGCUACACAUCGUAUGUACCGAAUCGGGGCCCCGGGGCCCCGGGGCCCCGGAAAGUAUUAUGUUACGCCGUUCGGAUCUGCACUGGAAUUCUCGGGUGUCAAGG | -0.0682
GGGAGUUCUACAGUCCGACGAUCGUCCUGUGCUACACAUCGUAUGUACCGAAUCGGGGAGGGGUUUUUGGGGUUUUUGGGGAAAGUAUUAUGUUACGCCGUUCGGAUCUGCACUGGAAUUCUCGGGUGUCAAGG | 0.36
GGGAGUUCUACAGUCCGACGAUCUCAAGUCCUGUGCUACACAUCGUAUGUACCGAAUCGGAGGAAAAAGGUUUUUGGAAAGUAUUAUGUUACGCCGUUCGGAUCUGCACUUCCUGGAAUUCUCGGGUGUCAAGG | -0.386
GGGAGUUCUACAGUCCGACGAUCAGUCCUGUGCUACACAUCGUAUGUACCGAAUCGGCCCCCGGCCCCCGGCCCCCGGGGAAAGUAUUAUGUUACGCCGUUCGGAUCUGCACUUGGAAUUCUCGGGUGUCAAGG | 0.358
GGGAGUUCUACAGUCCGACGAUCCCUGUGCUACACAUCGUAUGUACCGAAUCGGUUUUUUUGGGUUUUUUUGGGUUUUUUUGGAAAGUAUUAUGUUACGCCGUUCGGAUCUGCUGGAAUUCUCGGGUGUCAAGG | 0.914
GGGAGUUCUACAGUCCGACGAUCUGGUCAUGGGAUGGAGAACCAGUUCUUCCCUUAUAUCUUCACCAUAUGACUAUUGACCCUGUCUUAGGCUGCUCCCAGGCCGUUCCAUUGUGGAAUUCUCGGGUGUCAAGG | -0.0159
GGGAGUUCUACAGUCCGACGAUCUAACUUUAGAGGAGGAUCUGAUGGAUAUGGCAGUGGACGUGGAUUUGGGGAUUGCUAUAAUGGGUAUGGAGGAGGACCUGGAGGUGGCAAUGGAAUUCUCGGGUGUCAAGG | -0.825
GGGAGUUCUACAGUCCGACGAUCUAACUUUAGAGGAGCAUCUGAUGGAUAUGGCAGUGGACGUGGAUUUGGGGAUGGCUAUAAUGGGUAUGGAGGAGGACCUGGAGGUGGCAAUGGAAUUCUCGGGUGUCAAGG | -0.231
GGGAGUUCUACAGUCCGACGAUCAAGUCCUGUGCUACACAUCGUAUGUACCGAAUCGGUUUUUUUGGAAAAAGGAAAGGAAAGUAUUAUGUUACGCCGUUCGGAUCUGCACUUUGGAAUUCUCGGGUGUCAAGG | -2.27

Study 4
Target: RNA binding protein fox-1 homolog 2, RRM domain, GST-SBP tag (RBFOX2, Homo sapiens, UniProt O43251-10, residues 100-194)
Method: RNA Bind-n-Seq
Form: RNA
Matrix: in vitro
Concentration: 365 nM
Setting: natural RNA segment, single round, ends assumed
Reference: no-protein control
Direction: higher = stronger binding
Target sequence (chain): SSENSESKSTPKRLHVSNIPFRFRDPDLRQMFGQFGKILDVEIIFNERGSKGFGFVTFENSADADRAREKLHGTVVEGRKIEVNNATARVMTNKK
Oligonucleotide | RBNS enrichment (R)
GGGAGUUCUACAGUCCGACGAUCCUUUCUCUACUCCUCUCCCUCAGUCCUGAGACACUAAGAUCCCCUGGGCCAAGUCAGUUGGAGGCUGAGGCUGCAAGGCCAGGUGUGUAGCCCUUUUGAUCAAAUUGGUCUGGAAUUCUCGGGUGCCAA | 0.44
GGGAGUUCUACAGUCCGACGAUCCCCCUCGUGGCAGCUGUCCUUUCCACGUGCACUGGGACCAGAAGUCAGACAAGGAAUUUAGGAAGCAAAAGUUGACCAAGGGUGCAUUGGGUUCGCCUCCCCGAGGCUCCUGGAAUUCUCGGGUGCCAA | 0.576
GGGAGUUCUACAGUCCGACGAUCUGGCAUCAUAUAGUCAGUUACUGACAUGGCAUAAGACAGCAUGAAACUUUACCACAUUUAUAAAUAUGAGGGAUUUUUUCUUUUGUUGGUUUUUAACCCUUUUAGACUAAUGGAAUUCUCGGGUGCCAA | 1.28
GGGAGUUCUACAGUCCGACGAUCUCCAGGGGCUGUAUGGGCAGAUUCAGUCUCCAGAGGGUAUUCAGAUCAUCUGCUUCUUUGAAGGAGUAAAUGUGUUUUGUUCCUAGGGCCAGAGGAGCUUGUCUUCCUUGUGGAAUUCUCGGGUGCCAA | 0.342
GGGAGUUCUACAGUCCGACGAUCUUUGAAACAGUUUCACUGUGUCUGCCUGACUGGUCUGAAACUCACUAAGUAAACCAGGCUAGUUUCAAACACAGAUCUGCCUGCCUCUGCCUGCCAAUGCUCCAACUGAAUGGAAUUCUCGGGUGCCAA | 0.973
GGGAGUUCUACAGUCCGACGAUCAAAAGCCACUUUAUUUUAAAAUAUCAUGUGACAGAUACUUUCCAGAGCUACAACAUGCCAUCUAUAGUUGCCAGCCCUGGUCAGUUUUGAUUCUUAACCCCAUGGACUCCUGGAAUUCUCGGGUGCCAA | 0.345
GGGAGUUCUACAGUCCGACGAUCCUCUCUGAGGCUGGAUGAUCUGGAGGAAGGGGGCAUGGAGCAAAUUUGAGGCUCUGAUUGCUGAGCCAGCCUCCUCCCAGGCGGUUUCCCCAGGACUCUCGUAGGAAAUAUGGAAUUCUCGGGUGCCAA | 0.584
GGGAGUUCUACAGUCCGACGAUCAUCUAUAUAUAGUGUUUCACAAAGCUUAGAUCUUUAACCUUGCAGCUGCCCCACAGUGCUUGACCUCUGAGUCAUUGGUUAUACAGUGUAGUCCCAAGCACAUAAACUAGUGGAAUUCUCGGGUGCCAA | 0.295
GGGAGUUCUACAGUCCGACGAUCCACAUAAGAUUAAAAAUUCCUUCCUCAGUUGCACUAACCACGUUUCUAGAGGCGUCACUGUAUGUAGUUCAUGGCUACUGUACUGACAGCGAGAGCAUGUCCAUCUGUUGUGGAAUUCUCGGGUGCCAA | 9.7
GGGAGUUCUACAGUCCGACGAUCCUGUGUUCAGUUAUGAGACUCUUUGCAUAGUAUAGGGACUUGAAAGUUUUAUGAGACGGGUGUAAUAAUAUCUCCACCUGUGAUUUGGGGGUGGGACUCUUAUUUUGGGUUGGAAUUCUCGGGUGCCAA | 1.54
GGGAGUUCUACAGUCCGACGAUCGCCAGGCAUGGAGGCACAUGCCUAUAAUCCCAGCUACUCGGGAGGCUGAGGUAGGAGAAUCGCUUGAAUCCGGGAGCUGGAGGUUGCAGUGAGCCAAGAUCGCACCAUUGUGGAAUUCUCGGGUGCCAA | 1.4
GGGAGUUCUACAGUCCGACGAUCAAAAGGUGAGGUGGCAACCUGAUUUCUAAUGGCUUAAAAUGUUGAUGAUGAUCCUAAUUACAUAAACACACACAUAUAUCUAGUGAUUUCUAAGGAUUUGUUUACUUUUUUGGAAUUCUCGGGUGCCAA | 0.684

Excerpt of the above (study 2):
Oligonucleotide | E-score
CAGTATAG | 0.187
ACACTAAG | 0.0351
GACACAGC | -0.152
AACTCCTC | 0.0379
GATGTGAC | 0.0133
ATCGACCC | -0.0896
GTGAGCAC | -0.176
